Measured values from different studies.
Parts stem from different laboratories: compare values within a part only.

Block 1
Target: Sal-like protein 4, full length isoform A (SALL4, Homo sapiens, UniProt Q9UJQ4, residues 1-1053)
Sequence of UniProt Q9UJQ4 (whole entry, looked up): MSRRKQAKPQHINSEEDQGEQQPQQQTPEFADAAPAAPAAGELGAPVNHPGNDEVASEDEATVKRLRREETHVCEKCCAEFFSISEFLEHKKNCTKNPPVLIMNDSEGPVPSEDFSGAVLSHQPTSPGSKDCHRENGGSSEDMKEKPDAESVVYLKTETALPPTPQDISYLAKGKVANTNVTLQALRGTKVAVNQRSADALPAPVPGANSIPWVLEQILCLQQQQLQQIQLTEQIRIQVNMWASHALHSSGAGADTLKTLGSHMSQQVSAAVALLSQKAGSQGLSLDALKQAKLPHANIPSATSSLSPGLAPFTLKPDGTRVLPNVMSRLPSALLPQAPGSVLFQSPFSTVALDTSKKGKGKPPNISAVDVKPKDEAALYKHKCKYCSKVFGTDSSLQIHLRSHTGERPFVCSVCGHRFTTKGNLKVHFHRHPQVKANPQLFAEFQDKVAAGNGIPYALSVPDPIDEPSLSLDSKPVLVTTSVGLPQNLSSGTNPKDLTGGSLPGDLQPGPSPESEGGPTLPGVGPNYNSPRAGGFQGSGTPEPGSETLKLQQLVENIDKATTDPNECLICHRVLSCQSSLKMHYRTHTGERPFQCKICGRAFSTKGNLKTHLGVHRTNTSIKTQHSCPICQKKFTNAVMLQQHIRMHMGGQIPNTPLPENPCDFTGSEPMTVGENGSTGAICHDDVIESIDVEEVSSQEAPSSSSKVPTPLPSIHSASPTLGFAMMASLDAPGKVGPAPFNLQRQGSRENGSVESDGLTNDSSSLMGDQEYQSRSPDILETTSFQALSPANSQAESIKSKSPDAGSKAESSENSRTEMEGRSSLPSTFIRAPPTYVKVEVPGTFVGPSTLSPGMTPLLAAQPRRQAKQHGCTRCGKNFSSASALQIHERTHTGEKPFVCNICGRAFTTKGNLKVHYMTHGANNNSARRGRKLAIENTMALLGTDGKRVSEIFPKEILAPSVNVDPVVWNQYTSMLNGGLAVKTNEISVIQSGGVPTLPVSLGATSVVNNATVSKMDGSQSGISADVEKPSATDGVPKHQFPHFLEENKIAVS
Technique: universal PBM
Molecule type: double-stranded DNA, one strand shown
Medium: in vitro
Tested at: 600 nM
Setting: 8-mer, flanks averaged, mean of replicates
Reading: higher = stronger binding
Endpoint: E-score
Oligonucleotide = AAATGAGA; value = 0.165
Oligonucleotide = CGGTACCG; value = -0.29
Oligonucleotide = TAGAGTCA; value = -0.106
Oligonucleotide = ACACTATC; value = 0.161
Oligonucleotide = CACGGACC; value = -0.314
Oligonucleotide = AGGGTTGA; value = -0.0725

Block 2
Target: Histone acetyltransferase KAT6A, winged helix 1, GST fusion (KAT6A, Homo sapiens, UniProt Q92794, residues 1-85)
Technique: protein binding microarray
Molecule type: double-stranded DNA, one strand shown
Medium: in vitro
Tested at: not given
Setting: 8-mer, flanks averaged, mean of 2 arrays, mostly near background
Relative to: not given
Reading: higher = stronger binding
Endpoint: E-score
Target sequence (chain): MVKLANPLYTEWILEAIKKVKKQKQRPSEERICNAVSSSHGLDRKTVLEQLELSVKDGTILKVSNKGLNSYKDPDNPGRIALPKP
Oligonucleotide = ACTATACA; value = -0.0472
Oligonucleotide = GCCGTCAA; value = 0.288
Oligonucleotide = ACAACGTG; value = -0.0405
Oligonucleotide = GTCAGATA; value = -0.152
Oligonucleotide = ACTATTTC; value = 0.0259
Oligonucleotide = GTTGCCGA; value = 0.238
Oligonucleotide = CACATCGA; value = -0.0507

Block 3
Target: RNA binding protein fox-1 homolog 2, RRM domain, GST-SBP tag (RBFOX2, Homo sapiens, UniProt O43251-10, residues 100-194)
Technique: RNA Bind-n-Seq
Molecule type: RNA
Medium: in vitro
Tested at: 365 nM
Setting: natural RNA segment, single round, ends assumed
Relative to: no-protein control
Reading: higher = stronger binding
Endpoint: RBNS enrichment (R)
Residues (chain): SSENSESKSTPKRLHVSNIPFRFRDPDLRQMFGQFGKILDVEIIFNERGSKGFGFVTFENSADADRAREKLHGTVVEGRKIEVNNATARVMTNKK
Oligonucleotide = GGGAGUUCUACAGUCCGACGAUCGUUUGAGAGUAUAUGUUAAUGACUAUUUUUUUUAAAAAUGUUCUAUUGAAACCAGUGUAACAGCACAAAGAGCUCUAAUGUGUAACACUUCCUCUGAAAUGGAUAUAAAGUGGAAUUCUCGGGUGCCAA; value = 0.533
Oligonucleotide = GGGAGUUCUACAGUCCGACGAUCUUAAAACAGUAGCUAUAGCCAUUAACCAAAGGACAGAUGAUAUAUAUAUAUAUGAUAUAUAUAUAUAUAUAAGUUCUUUUUUAGCUGUACCUACGUACUUAUAUCAGCACUGGAAUUCUCGGGUGCCAA; value = 1.16
Oligonucleotide = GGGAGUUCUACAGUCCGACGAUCACUCAUUCUCUUACCUAGCGAACAAGAUCUUUUCAGAGUGGUGUUUCUAAAAGAGCAUGUACAAAAGUGGCCUGUGGACAUUUAGGCCUGGGUGAUGCAUUUGCUCUUCCUGGAAUUCUCGGGUGCCAA; value = 0.639
Oligonucleotide = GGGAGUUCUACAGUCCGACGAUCGCACUGCACCUGCUUCCUUCCCUUCAGUGCGGCCGACCCAUUUCUGUUGAACAGAUGUCUCCUGUGUGAUGCCCCUGACUCUUACAUUUAUCUUUCUAAAUCAUUUUCUGUGGAAUUCUCGGGUGCCAA; value = 0.699
Oligonucleotide = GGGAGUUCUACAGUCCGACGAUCGUCUGGCAACGCCCACAGUUACCACAACACAGAAAACUGAUCGUGCUAUAAAAUGGACGCUAAACUAUGAAAACAGUGUGACAUUGUUCUCUGUUCUUCCAGAGCCAGUAUGGAAUUCUCGGGUGCCAA; value = 0.276
Oligonucleotide = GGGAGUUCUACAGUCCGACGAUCUCAGUGAUUCGCUUUUGGUAUUUGUUUGUAGCUUUCCUGGAAGUCAAAUAAAUGUUUCCCCCACUCCUUGCCCUUCCACUUGUCUUUUCUCCGAGGGGUCUGCCUCUCCCUGGAAUUCUCGGGUGCCAA; value = 0.538
Oligonucleotide = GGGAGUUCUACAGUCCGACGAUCUUAAAUUUCUGUUUACAUUGAAAGCUGUUCAUUCAUGGCGCCCCCCCCCCCCCAAUCAUAAGACCAAAGAUGACCAAAUAAUAUGGUAGACUCUGAUUACAGUCUGACCUUGGAAUUCUCGGGUGCCAA; value = 0.354

Other studies, line by line
Molecule = PhoQ, residues 284 288 289 292 302 303 TYGVAM; target = PhoP, residues 12 14 15 18 19 QQAYL (Escherichia coli, UniProt P23836); test = Sort-seq, refers to: YFP reporter; system = E. coli; conditions = PhoQ-PhoP variant library, together with: 10 µM Mg2+; scale = relative to: high Mg2+ state, higher = stronger signaling; endpoint = fold induction; value = 7.89
